Experimental data gathered from unrelated publications.
Every numbered part comes from another study and shows a few of its results, in no order. Values joined by “and” are separate records of one study, mostly repeats; a detail may differ.
UniProt Q9NYL2, sequence (whole entry, looked up): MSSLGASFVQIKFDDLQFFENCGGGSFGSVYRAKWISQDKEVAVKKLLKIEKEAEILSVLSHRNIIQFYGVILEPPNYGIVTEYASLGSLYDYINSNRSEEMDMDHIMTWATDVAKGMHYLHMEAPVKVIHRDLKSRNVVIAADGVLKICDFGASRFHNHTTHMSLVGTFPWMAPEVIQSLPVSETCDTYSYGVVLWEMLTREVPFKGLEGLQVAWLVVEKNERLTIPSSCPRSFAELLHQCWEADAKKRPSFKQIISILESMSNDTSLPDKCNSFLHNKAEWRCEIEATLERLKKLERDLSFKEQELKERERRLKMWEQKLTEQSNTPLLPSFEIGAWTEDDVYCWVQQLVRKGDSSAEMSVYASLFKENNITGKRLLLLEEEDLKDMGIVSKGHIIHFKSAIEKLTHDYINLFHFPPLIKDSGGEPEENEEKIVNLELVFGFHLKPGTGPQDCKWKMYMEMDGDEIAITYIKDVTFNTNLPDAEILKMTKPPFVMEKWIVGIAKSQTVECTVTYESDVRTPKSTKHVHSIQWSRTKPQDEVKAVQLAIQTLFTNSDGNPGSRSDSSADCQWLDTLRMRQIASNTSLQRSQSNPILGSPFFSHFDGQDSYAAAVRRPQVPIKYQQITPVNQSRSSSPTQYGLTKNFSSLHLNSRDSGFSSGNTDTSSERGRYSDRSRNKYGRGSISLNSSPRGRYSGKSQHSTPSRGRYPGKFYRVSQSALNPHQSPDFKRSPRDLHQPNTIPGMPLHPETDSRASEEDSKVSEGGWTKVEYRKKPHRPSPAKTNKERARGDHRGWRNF
UniProt Q9UF33, sequence (whole entry, looked up): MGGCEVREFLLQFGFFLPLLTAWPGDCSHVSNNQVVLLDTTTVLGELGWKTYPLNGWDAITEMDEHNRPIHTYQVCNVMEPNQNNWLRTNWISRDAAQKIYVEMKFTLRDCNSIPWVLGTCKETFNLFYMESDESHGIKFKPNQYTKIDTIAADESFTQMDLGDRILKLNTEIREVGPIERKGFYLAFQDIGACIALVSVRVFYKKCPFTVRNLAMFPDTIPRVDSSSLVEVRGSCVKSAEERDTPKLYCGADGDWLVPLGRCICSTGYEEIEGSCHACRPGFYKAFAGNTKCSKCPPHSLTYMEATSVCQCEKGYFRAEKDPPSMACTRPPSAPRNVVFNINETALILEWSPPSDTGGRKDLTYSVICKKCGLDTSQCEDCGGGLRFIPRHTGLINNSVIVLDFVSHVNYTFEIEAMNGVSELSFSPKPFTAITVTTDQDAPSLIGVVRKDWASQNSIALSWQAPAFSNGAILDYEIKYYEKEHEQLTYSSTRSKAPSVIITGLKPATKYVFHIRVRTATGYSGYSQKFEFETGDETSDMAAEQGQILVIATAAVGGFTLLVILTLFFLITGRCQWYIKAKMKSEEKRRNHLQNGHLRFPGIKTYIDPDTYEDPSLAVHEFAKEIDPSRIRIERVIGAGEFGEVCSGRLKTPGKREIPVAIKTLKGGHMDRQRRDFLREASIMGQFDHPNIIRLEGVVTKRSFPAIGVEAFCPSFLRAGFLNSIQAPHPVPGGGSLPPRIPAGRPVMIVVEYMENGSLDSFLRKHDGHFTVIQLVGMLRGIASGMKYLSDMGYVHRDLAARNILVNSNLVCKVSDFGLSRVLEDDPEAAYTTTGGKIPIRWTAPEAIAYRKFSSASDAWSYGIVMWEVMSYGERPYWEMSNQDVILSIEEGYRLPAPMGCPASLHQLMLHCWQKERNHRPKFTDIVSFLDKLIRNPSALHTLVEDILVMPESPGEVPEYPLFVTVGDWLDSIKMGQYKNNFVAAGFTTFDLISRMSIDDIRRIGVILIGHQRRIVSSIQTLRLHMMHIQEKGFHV
UniProt P07949, sequence (whole entry, unmodified, looked up): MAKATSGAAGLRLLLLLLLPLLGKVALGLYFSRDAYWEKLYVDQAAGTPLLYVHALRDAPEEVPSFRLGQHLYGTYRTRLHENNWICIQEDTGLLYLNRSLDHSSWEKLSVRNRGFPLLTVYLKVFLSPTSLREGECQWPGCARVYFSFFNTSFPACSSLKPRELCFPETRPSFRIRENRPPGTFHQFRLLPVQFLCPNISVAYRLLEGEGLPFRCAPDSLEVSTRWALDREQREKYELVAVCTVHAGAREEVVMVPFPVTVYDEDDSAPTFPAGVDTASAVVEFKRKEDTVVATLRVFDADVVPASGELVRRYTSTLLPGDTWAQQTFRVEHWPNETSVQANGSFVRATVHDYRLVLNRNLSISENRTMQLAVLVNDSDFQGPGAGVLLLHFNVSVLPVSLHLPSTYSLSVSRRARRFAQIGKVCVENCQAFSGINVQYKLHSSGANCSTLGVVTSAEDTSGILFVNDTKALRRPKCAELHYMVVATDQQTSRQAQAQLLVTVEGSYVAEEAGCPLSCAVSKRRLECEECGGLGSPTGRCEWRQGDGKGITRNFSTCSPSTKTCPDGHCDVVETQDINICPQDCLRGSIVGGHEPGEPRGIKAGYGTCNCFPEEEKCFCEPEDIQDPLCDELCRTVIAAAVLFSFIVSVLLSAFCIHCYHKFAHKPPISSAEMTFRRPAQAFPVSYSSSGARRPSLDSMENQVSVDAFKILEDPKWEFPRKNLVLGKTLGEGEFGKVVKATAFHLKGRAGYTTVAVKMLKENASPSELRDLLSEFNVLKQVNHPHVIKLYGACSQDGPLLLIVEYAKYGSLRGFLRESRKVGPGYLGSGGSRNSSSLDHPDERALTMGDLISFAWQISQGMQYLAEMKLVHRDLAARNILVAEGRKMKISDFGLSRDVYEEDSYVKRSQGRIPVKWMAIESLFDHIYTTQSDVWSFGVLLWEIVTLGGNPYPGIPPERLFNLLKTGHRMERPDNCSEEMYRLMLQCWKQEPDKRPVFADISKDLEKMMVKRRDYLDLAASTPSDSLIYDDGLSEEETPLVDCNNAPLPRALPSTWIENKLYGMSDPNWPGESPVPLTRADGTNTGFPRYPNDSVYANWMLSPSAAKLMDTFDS
UniProt Q9NQU5, sequence (whole entry, looked up): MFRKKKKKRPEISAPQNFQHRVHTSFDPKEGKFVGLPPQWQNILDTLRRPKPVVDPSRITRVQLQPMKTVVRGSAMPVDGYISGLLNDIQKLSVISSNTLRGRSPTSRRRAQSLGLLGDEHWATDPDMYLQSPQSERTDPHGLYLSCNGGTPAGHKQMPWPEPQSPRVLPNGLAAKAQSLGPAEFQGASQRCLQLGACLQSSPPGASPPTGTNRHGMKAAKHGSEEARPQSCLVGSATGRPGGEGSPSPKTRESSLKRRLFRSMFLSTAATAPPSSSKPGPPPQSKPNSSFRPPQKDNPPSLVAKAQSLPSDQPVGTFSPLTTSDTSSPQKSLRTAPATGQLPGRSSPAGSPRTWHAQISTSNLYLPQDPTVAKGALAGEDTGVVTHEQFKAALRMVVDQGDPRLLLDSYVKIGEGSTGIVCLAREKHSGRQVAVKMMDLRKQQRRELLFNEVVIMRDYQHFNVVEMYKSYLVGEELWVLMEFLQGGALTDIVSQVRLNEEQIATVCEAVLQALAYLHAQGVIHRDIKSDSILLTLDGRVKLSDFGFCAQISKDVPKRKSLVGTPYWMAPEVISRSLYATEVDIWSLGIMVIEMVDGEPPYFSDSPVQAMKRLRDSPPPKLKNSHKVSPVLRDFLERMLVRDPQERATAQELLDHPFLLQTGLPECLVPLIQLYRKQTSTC
UniProt Q06418, sequence (whole entry, looked up): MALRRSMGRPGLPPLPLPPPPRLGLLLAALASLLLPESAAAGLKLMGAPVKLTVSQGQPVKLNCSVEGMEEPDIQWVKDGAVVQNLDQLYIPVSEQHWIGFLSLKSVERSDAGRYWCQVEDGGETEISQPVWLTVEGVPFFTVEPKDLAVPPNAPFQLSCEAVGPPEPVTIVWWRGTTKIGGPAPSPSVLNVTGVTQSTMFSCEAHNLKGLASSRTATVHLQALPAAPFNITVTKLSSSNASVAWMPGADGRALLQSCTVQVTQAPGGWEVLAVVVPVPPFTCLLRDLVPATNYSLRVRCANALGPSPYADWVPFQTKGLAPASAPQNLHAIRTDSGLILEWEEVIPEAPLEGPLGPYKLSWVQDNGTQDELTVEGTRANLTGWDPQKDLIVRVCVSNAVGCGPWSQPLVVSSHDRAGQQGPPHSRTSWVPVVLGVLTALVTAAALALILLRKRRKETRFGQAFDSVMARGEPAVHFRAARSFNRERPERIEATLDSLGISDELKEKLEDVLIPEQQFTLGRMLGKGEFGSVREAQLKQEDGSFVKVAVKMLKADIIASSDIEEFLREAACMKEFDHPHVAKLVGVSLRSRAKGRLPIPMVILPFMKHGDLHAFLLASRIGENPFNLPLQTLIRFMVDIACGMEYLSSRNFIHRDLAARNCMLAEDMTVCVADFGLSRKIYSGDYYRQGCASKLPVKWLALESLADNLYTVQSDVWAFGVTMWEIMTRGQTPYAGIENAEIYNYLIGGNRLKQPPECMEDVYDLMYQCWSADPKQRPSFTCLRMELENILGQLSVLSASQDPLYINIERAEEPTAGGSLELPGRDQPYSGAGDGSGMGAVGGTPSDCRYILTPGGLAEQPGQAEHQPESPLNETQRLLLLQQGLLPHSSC
UniProt Q9UIK4, sequence (whole entry, looked up): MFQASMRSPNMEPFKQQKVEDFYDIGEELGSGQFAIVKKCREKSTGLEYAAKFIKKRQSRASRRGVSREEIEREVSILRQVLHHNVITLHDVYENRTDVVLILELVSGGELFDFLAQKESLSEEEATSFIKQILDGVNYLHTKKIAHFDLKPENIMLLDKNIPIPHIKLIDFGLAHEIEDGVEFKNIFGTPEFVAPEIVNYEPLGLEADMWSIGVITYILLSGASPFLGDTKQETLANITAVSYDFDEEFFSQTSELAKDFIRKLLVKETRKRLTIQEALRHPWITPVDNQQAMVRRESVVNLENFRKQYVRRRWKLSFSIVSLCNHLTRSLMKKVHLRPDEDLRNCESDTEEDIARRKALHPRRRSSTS

Set 1
SMILES: COc1ccc(-c2c(Nc3ccccn3)[nH]c3c(C4=CCCCC4)c(-c4ccccc4)nn3c2=O)cc1
Sample: plasma
Route: oral
| measured | species | dose | time | notes | median plasma concentration |
| --- | --- | --- | --- | --- | --- |
| – | human | 400 mg once daily | 4 h | cycle 1 | 2570 ng/mL |
| S-adenosylmethionine | human patients | 400 mg once daily | 8 h, cycle 1 | – | 19.1 ng/mL |
| – | human | 200 mg once daily | 3 h | cycle 1 | 6390 ng/mL |
| S-adenosylmethionine | human patients | 400 mg once daily | 6 h, cycle 1 | – | 20.2 ng/mL |
| S-adenosylmethionine | human patients | 400 mg once daily | 2 h, cycle 1 | – | 20.1 ng/mL |
| – | human | 100 mg once daily | 2 h | cycle 1 | 5400 ng/mL |

Set 2
Compound: N#CC(=C(N)Sc1ccc(N)cc1)c1ccccc1C(F)(F)F
Read-out: enzyme activity
Mode: inhibitor
Tested at: 0.5 µM
Baseline: control
| target | remaining activity [%] |
| --- | --- |
| JAK1 (Homo sapiens, UniProt P23458) | 106 |
| PRKCQ (Homo sapiens, UniProt Q04759) | 104 |
| TEC (Homo sapiens, UniProt P42680) | 109 |
| PAK1 (Homo sapiens, UniProt Q13153) | 94.3 |
| CAMK1 (Homo sapiens, UniProt Q14012) | 91.6 |
| EPHA2 (Homo sapiens, UniProt P29317) | 104 |
| CSNK1E (Homo sapiens, UniProt P49674) | 95.8 |
| MAP3K20 (Homo sapiens, UniProt Q9NYL2) | 105 |
| PRKCZ (Homo sapiens, UniProt Q05513) | 106 |
| MUSK (Homo sapiens, UniProt O15146) | 91.9 |
| CSNK1D (Homo sapiens, UniProt P48730) | 106 |
| TYRO3 (Homo sapiens, UniProt Q06418) | 110 |
| SRPK1 (Homo sapiens, UniProt Q96SB4) | 96.5 |
| SIK2 (Homo sapiens, UniProt Q9H0K1) | 101 |
| FLT1 (Homo sapiens, UniProt P17948) | 85.4 |
| CLK2 (Homo sapiens, UniProt P49760) | 100 |
| SGK2 (Homo sapiens, UniProt Q9HBY8) | 99 |
| Cyclin-dependent kinase 2, with cyclin E (CDK2, Homo sapiens, UniProt P24941) | 95.4 |
| RPS6KA3 (Homo sapiens, UniProt P51812) | 100 |
| EPHA6 (Homo sapiens, UniProt Q9UF33) | 92.3 |
| PAK6 (Homo sapiens, UniProt Q9NQU5) | 107 |
| IGF1R (Homo sapiens, UniProt P08069) | 97.4 |
| CAMKK1 (Homo sapiens, UniProt Q8N5S9) | 117 |

Set 3
SMILES: Cc1nc(N2CC[C@@H](O)C2)ncc1-c1cc(C(F)(F)F)cc2[nH]ncc12
Method: competition with immobilised ligand
Tested at: 1 µM
| target | read-out | remaining binding |
| --- | --- | --- |
| MTOR (Homo sapiens, UniProt P42345) | cell-free assay | 100% |
| WNK2 (Homo sapiens, UniProt Q9Y3S1) | binding | 41% |
| Tyrosine-protein kinase ABL1, phosphorylated (ABL1, Homo sapiens, UniProt P00519, E255K) | binding | 77% |
| RET (Homo sapiens, UniProt P07949, V804L) | cell-free assay | 100% |
| CDK17 (Homo sapiens, UniProt Q00537) | binding | 91% |
| GRK7 (Homo sapiens, UniProt Q8WTQ7) | binding | 70% |
| Ribosomal protein S6 kinase alpha-5, N-terminal kinase domain (RPS6KA5, Homo sapiens, UniProt O75582) | binding | 100% |
| MAP4K3 (Homo sapiens, UniProt Q8IVH8) | binding | 100% |
| RIPK2 (Homo sapiens, UniProt O43353) | binding | 95% |
| Tyrosine-protein kinase ABL1, phosphorylated (ABL1, Homo sapiens, UniProt P00519, Q252H) | binding | 79% |
| MAP3K20 (Homo sapiens, UniProt Q9NYL2) | binding | 100% |
| DAPK2 (Homo sapiens, UniProt Q9UIK4) | binding | 100% |
| STK35 (Homo sapiens, UniProt Q8TDR2) | binding | 100% |
| RET (Homo sapiens, UniProt P07949) | cell-free assay | 84% |
| TAOK2 (Homo sapiens, UniProt Q9UL54) | binding | 100% |
| MAPK8 (Homo sapiens, UniProt P45983) | binding | 100% |
| MAPK4 (Homo sapiens, UniProt P31152) | binding | 90% |
| PIK3C2G (Homo sapiens, UniProt O75747) | binding | 90% |
| ITK (Homo sapiens, UniProt Q08881) | cell-free assay | 64% |
| EPHA6 (Homo sapiens, UniProt Q9UF33) | cell-free assay | 100% |

Single results of other studies
| Compound | organism | assay | test system | setting | quantity | value |
| --- | --- | --- | --- | --- | --- | --- |
| c1ccc(Oc2ccc(Nc3c4c(nc5ccccc35)CCC4)cc2)cc1 | Leishmania infantum | qPCR | MHOM/BR/1972/BH46, golden hamster, chronic infection, spleen | oral, 10 mg/kg/day, 10 days, together with: glucantime 50 mg/kg/day i.p. | parasite load | 572 amastigotes/g tissue and 100 amastigotes/g tissue and 65.8 amastigotes/g tissue and 58.5 amastigotes/g tissue and 63.3 amastigotes/g tissue and 112 amastigotes/g tissue |

A few entries again (set 3):
| target | read-out | remaining binding |
| --- | --- | --- |
| Tyrosine-protein kinase ABL1, phosphorylated (ABL1, Homo sapiens, UniProt P00519, Q252H) | binding | 79% |
| MTOR (Homo sapiens, UniProt P42345) | cell-free assay | 100% |
| RIPK2 (Homo sapiens, UniProt O43353) | binding | 95% |
